# Experimental data pooled from the literature.
# Compare with care: the assays were run in different laboratories.
# TDP1: Tyrosyl-DNA phosphodiesterase 1 (TDP1, Homo sapiens, UniProt Q9NUW8)
# UniProt Q9NUW8, sequence (whole entry, looked up): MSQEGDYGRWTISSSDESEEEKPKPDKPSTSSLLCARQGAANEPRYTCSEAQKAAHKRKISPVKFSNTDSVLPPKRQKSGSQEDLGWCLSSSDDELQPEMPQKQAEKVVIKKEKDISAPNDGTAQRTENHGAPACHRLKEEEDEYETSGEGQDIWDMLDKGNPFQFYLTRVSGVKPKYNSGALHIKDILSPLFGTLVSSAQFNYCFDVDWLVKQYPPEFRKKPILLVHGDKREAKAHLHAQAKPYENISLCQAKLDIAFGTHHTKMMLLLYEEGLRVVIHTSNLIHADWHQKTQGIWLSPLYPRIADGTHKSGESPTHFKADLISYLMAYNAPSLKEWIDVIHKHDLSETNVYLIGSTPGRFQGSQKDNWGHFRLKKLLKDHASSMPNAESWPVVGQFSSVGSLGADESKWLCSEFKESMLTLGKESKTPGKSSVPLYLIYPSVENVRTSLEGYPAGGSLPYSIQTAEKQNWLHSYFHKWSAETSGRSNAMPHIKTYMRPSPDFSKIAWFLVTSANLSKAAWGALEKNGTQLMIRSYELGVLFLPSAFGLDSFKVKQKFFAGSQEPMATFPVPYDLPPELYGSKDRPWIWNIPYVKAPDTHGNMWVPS
SMILES,tested on,assay,setting,scale,measurement,result
O=C(C[Se]C(=O)c1cc2ccccc2s1)Nc1cccc(C(F)(F)F)c1,NCI60 melanoma subpanel,"total growth inhibition, inhibitor",five-dose,,mean TGI,2930 nM
Cc1ncsc1-c1ccc(C(C)NC(=O)C2CC(O)CN2C(=O)C(NC(=O)CCCCCCCCCCN2CCCC(Nc3ncc(Cl)c(Nc4ccccc4S(=O)(=O)C(C)C)n3)C2)C(C)(C)C)cc1 (centres unmarked),22Rv1,"RNA-seq, measured: PKDREJ mRNA",concentration not given,relative to: DMSO,log2 fold change,-3.95
CC(C)c1ccc(N(C)c2ccc3c(c2)OCC[C@H]3CNc2cnccc2C(=O)O)cc1,Capan-2,"cell growth or viability, ATP luminescence",7 days,,IC50,≥ 10000 nM
Cc1c(C=NOCc2ccc3nc(-c4ccccc4)c(Nc4ccc(C(=O)O)cc4)n3c2)cnn1CCC(=O)O (mixture of isomers),TDP1,"enzyme activity, inhibitor","100 µM, unpurified compound",,inhibition,7.9%
Cn1ncc2cc(-c3cncc(Cl)c3N3CCC4(CCNC4=O)CC3)ccc21,LS174T,"gene expression, microarray, measured: NDRG1 mRNA","concentration not given, 4 h",relative to: untreated cells,log2 fold change,1.43
CCN(CC)CC(=O)Nc1cccc(-n2cc(-c3ccc4ccc(-c5cn(-c6cccc(NC(=O)CN(CC)CC)c6)nn5)cc4c3)nn2)c1,RCC4,"PCR angiogenesis array, measured: CXCL6","5 x IC50, 2 h, normoxia",relative to: untreated,fold regulation,-1.04
CO[C@@H]1[C@@H](OC(N)=O)[C@@H](O)[C@H](Oc2ccc3c(O)c(NC(=O)c4ccc(O)c(CC=C(C)C)c4)c(=O)oc3c2C)OC1(C)C,DLD-1 BRCA2-/-,,"200 µM, replicate A",relative to: untreated,colony survival,0.339%
CNS(=O)(=O)Nc1nccc(Cc2c(C)c3ccc(Oc4ncccc4F)cc3oc2=O)c1F,HCC1419,cell viability,7 days,,IC50,66 nM
O=C(O)c1ccc(Nc2c(-c3ccc(CON=Cc4cc(Br)c(Br)o4)cc3)nc3cc(-c4ccccc4)ccn23)cc1,TDP1,"enzyme activity, inhibitor","100 µM, unpurified compound",,inhibition,91.9%
CCc1ccc(-c2ccc(/C=C/C(=O)Nc3cc(Nc4nccc(-c5cn(C)c6ccccc56)n4)c(OC)cc3N(C)CCN(C)C)cc2)cc1,NCI-H1975,"cell growth or viability, MTT","0.5 µM, 72 h",,inhibition,58.4%
CN1CCCNC(=O)c2cccc(c2)C(=O)NCCCN(C)CCCNc2cccc3c2C(=O)c2cccc(c2C3=O)NCCC1,SAS,"RNA-Seq, measured: PUM3 mRNA","1 µM, 6 h",relative to: untreated cells,log2 fold change,-0.812
